Results of several laboratories.
Numbered parts are unrelated; each lists some results of a single study.

Block 1 — method: aptamer microarray, sandwich; molecule type: DNA with 2'F-ANA; sample: in vitro; tested at: 200 nM; added: Cy3 exosite-II aptamer, 400 nM; reading: higher = stronger binding; endpoint: mean fluorescence intensity; oligonucleotide: GGTTGGTGTGGTTGG
Target: Prothrombin, mature alpha-thrombin (F2, Homo sapiens, UniProt P00734)
Notes: whole 15-mer aptamer, many near background
Modification = 2'F-ANA at 1 2 3 7 8 9 11 12 13 14; result = 83.4 a.u.
Modification = 2'F-ANA at 1 2 5 7 9 13 14; result = 45 a.u.
Modification = 2'F-ANA at 1 3 7 9 10 11 15; result = 78.7 a.u.
Modification = 2'F-ANA at 3 5 9 11 13; result = 84.1 a.u.
Modification = 2'F-ANA at 1 2 3 4 6 7 9 10 13 14; result = 54.7 a.u.
Modification = 2'F-ANA at 2 4 5 9 11 12 13 14; result = 46.9 a.u.
Modification = 2'F-ANA at 5 6 7 11 12 13; result = 119 a.u.
Modification = 2'F-ANA at 1 4 5 7 8 9 10 11 13 14; result = 47.4 a.u.
Modification = 2'F-ANA at 1 2 4 5 6 9 10 13; result = 56.8 a.u.
Modification = 2'F-ANA at 2 3 5 6 8 9 11 13 14; result = 50 a.u.
Modification = 2'F-ANA at 1 3 4 6 7 12 13 14; result = 87.3 a.u.
Modification = 2'F-ANA at 3 6 7 8 9 10 12 13 15; result = 467 a.u.
Modification = 2'F-ANA at 7 8 9 12 14; result = 267 a.u.
Modification = 2'F-ANA at 1 2 3 4 6 7 8 10 11 12 13 15; result = 62.3 a.u.
Modification = 2'F-ANA at 4 5 7 9 11 14 15; result = 42.8 a.u.
Modification = 2'F-ANA at 1 3 8 9 12 13 14; result = 139 a.u.
Modification = 2'F-ANA at 1 2 3 6 8; result = 291 a.u.
Modification = 2'F-ANA at 3 4 5 6 7 8 9 10 11 12 15; result = 66.2 a.u.
Modification = 2'F-ANA at 1 7 8 12; result = 499 a.u.
Modification = 2'F-ANA at 3 4 5 11 13 15; result = 85.3 a.u.

Block 2 — method: RNA Bind-n-Seq; molecule type: RNA; sample: in vitro; tested at: 365 nM; relative to: no-protein control; reading: higher = stronger binding; endpoint: RBNS enrichment (R)
Target: RNA binding protein fox-1 homolog 2, RRM domain, GST-SBP tag (RBFOX2, Homo sapiens, UniProt O43251-10, residues 100-194)
Notes: natural RNA segment, single round, ends assumed
Constant ends, left off below: GGGAGUUCUACAGUCCGACGAUC … UGGAAUUCUCGGGUGCCAA
Target sequence (chain): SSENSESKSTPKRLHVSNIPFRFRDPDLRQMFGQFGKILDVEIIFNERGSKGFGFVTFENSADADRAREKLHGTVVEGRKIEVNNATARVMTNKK
Oligonucleotide = UACUAAAAUAGGUUAAUAGUAAGCAAGGUGCCGGUGUACAGUCUCUAACUCGAUCAGUGUCUUUUCAGCACUUUGGAGCAUUUCCUUGGCUCAUCUAGUCUUCCUUUUGU; result = 0.54
Oligonucleotide = CAUCCCCACCCCAGCUGUUACCCAGCCCGGGGCAGGUGCAGCCCUUCCUCCCUGUCUCUGCAUCUGACUCUCUUUUGAGGUCCCUGUAUGUCUACCUCUGACUUCUGUGG; result = 0.532
Oligonucleotide = CUUUGACCACGAAGAAACGGAGACUCAGAGAGUUUGUAUCCUAUGUGUAAGAUCACACAGUUGUCAGAGUCAGGAUUCAAAUCUAGUUCUAACUCCAAAGCUCUCCACAC; result = 0.269
Oligonucleotide = AAGCAGGACAGUGUGCGUGCACGAGCUCCGAGCCCAGCACAGACAUGCCUGGAACCCCCGCCGCCUGCUGCUCCCUCCUAGGGAACCCAUUUCCGGGGAACGCCGUGACU; result = 0.361
Oligonucleotide = UAGAACAAACUAGUGACCAAAUUGUCAUCUGCUAGUAUGGAAGUUCUUAGUUUUCUUAACCAUGCUUUAUGUCUUGUCCAGGUAUGUCAGUCCAGUUUCCAUGACGUACC; result = 2.34
Oligonucleotide = GUUGAGAAGGCUUAAUCUCCUGUUUACAGCCCACAAUGAUUCUGUCCCAUGGUGUCCUGGCUAUAUGACCUAAAAACCAGCCUUUCCUCCACAAGGCUUUGAGACACAUC; result = 0.522
Oligonucleotide = UGAAAGGGAGUUAAAUGAAUUCACAUGAAGGGGUCGCCUGAGUCCCGCAGUUCCCCGCUCUGUACUGUAUUUUGCCAUUUCCCGUAGUCAGGUGUUCUGCAGGGUCUCUU; result = 0.429
Oligonucleotide = GCCCUGGCUGGCCUGGAACUCACUCUGUGGACCAGGCUGGUCUCCAACUCAGAUCCUCCUGCCUCUGCCUCCCAAGUGCUGGGAUUAAAGGUGUGAUCUACCACUGCCGG; result = 0.296
Oligonucleotide = UGGAUCCUGUGGGUGGAGUCAGCAGGAACAAAGGGUUUUCCAUGGUAUUGAUGCUACCUCAGGUCUCUAAGAUGCACAUGAGUCAGCACAGGUGGCACUGUCUCUCCCUU; result = 0.938
Oligonucleotide = ACUCAGAAAUUUUAAAUUUGAAAAAGAAAUCGAUUUUCAUCUGUAUGCCGUCAAGGAAGGAAUUCAGUUACAGGGCAUCUGUAACUUAAAUAUUGUAAGAAUAACUCAUA; result = 0.349
Oligonucleotide = AUGUCAUUAACUACCCCUCUCUGUUUUUACCCCUCUACCUUUGCAGGACCCGGGUCAUGGGUCAGUGUUAGUGGUAGCGUGCUCUCAUUCGCUUGGAAGUGGUGGCCAUG; result = 0.313
Oligonucleotide = CCUAAAAUAGAAUCAUUGCUUUUUGUGUUUCUCAUCCCAACCUUGAAGUUGUCAUGUCAUCCUUUUCUGUCUUCCACUCUCCUGGUCUAGAACCUUGUUGAUCAUGCUCA; result = 0.707

Block 3 — method: protein-binding microarray; molecule type: double-stranded DNA, one strand shown; sample: in vitro; tested at: 2200 nM top; notes: 60-bp whole probe; added: salmon DNA 0.4 mg/ml; relative to: random background probes; reading: higher = stronger binding; endpoint: fitted relative affinity; constant ends, left off below: GCCTAGCAC … GTCTTGATTCGCTTGACGCTGCTG
Target: Interferon regulatory factor 7, full length, phosphomimetic (IRF7, Homo sapiens, UniProt Q92985, residues 1-503, S471D/S472D/S475D/S476D/S477D/S483D/S484D/S487D)
Target sequence (chain): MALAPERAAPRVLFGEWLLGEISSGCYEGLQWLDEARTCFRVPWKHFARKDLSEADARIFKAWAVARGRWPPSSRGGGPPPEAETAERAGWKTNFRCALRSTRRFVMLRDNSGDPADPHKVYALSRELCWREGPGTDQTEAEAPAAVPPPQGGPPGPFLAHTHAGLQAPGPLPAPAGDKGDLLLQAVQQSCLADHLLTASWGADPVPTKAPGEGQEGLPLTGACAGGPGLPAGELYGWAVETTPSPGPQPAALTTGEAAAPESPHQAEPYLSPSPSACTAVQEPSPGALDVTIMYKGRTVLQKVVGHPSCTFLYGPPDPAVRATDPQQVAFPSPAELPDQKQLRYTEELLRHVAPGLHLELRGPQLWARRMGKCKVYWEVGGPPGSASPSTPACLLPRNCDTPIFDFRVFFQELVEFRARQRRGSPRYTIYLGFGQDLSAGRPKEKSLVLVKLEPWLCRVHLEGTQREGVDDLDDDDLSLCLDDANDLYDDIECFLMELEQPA
Oligonucleotide = CTCTGTCCCCCTTTTATATTGTGCTAG; result = 1.38 z-score
Oligonucleotide = CACTTTGGATAACCAAAAACGTGCTAG; result = 0.878 z-score
Oligonucleotide = CTAGGTATCGACTATCGGTTAGTGCTA; result = 0.347 z-score
Oligonucleotide = AACGGTTTCGACTTTCGGGACGTGCTA; result = 8.62 z-score
Oligonucleotide = TTAAGTTTCGGACTGGGTTAGTGCTAG; result = 4.32 z-score
Oligonucleotide = TTAGGGTTCGACACTGGGTTAGTGCTA; result = -0.352 z-score
Oligonucleotide = GACGGACTGGGACTGGTGACGTGCTAG; result = -0.737 z-score
Oligonucleotide = TTAGGTCTCGGTTTCTGTTAGTGCTAG; result = 3.49 z-score
Oligonucleotide = GCCGGACTGCTTATCCTGACGTGCTAG; result = 0.238 z-score
Oligonucleotide = TTAGGTATCGACCTTCGGTTAGTGCTA; result = 0.423 z-score
Oligonucleotide = TTAGGTTTCGGGTATTGGTTAGTGCTA; result = 5.5 z-score
Oligonucleotide = TTAGGTTTCGGGCATCGGTTAGTGCTA; result = 2.41 z-score
Oligonucleotide = TTAGATTTCGGGACTTGATTAGTGCTA; result = 0.971 z-score
Oligonucleotide = TTAGGTATCCTTCTCCTTAAGTGCTAG; result = 1.55 z-score
Oligonucleotide = GACGGTCTCCTCCTCCTGACGTGCTAG; result = 0.684 z-score
Oligonucleotide = CAAGTTTCTCCTTTGTAAATGTGCTAG; result = 2.86 z-score
Oligonucleotide = GACGGAGTGGACACTGGGGACGTGCTA; result = -0.726 z-score
Oligonucleotide = ATGCTGGTCACTCTCTGGGCGTGCTAG; result = 0.0407 z-score
Oligonucleotide = TTCCCTTTTAAGTTCTCTGAGTGCTAG; result = 3.62 z-score
Oligonucleotide = TCAAGTAGCTTTCTGAGACTGTGCTAG; result = 0.384 z-score
Oligonucleotide = GACTAACTGAGACTGGAGACGTGCTAG; result = -0.35 z-score
Oligonucleotide = ACTTCATTGCATATAGAAAAGTGCTAG; result = 0.462 z-score
Oligonucleotide = TCACATGTAAATAATCAGACTGTGCTA; result = -0.00202 z-score
Oligonucleotide = TTAGGCATCGGTATCGGTTAGTGCTAG; result = 0.197 z-score
Oligonucleotide = TTAGGTTTCGGACTGGGTTGGTGCTAG; result = 3.29 z-score

Block 4 — method: protein binding microarray; molecule type: double-stranded DNA, one strand shown; sample: in vitro; tested at: not given; relative to: not given; reading: higher = stronger binding; endpoint: E-score
Target: Histone acetyltransferase KAT6A, winged helix 1, GST fusion (KAT6A, Homo sapiens, UniProt Q92794, residues 1-85)
Notes: 8-mer, flanks averaged, mean of 2 arrays, mostly near background
Residues (chain): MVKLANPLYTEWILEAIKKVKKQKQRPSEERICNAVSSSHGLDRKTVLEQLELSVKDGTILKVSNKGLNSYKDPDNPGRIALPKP
Oligonucleotide = CGCTACAA; result = 0.123
Oligonucleotide = CCCACTTA; result = -0.152
Oligonucleotide = CTACGGCC; result = 0.291
Oligonucleotide = ACGCGGGG; result = 0.286
Oligonucleotide = ATACTGGC; result = -0.165
Oligonucleotide = ATTGTTCG; result = -0.00143
Oligonucleotide = AAAACCGA; result = -0.00545
Oligonucleotide = AACGATAC; result = -0.233
Oligonucleotide = CGCATGTA; result = 0.222
Oligonucleotide = ATCCAGTA; result = -0.16
Oligonucleotide = AGGAGGAC; result = -0.152
Oligonucleotide = GTTAAGTA; result = -0.151
Oligonucleotide = GGGGACAA; result = -0.0104
Oligonucleotide = GTTGATTA; result = -0.113
Oligonucleotide = CCACTTCA; result = -0.114
Oligonucleotide = CGGACAAC; result = -0.002

Block 5 — method: universal PBM; molecule type: double-stranded DNA, one strand shown; sample: in vitro; tested at: 600 nM; reading: higher = stronger binding; endpoint: E-score
Target: Sal-like protein 4, full length isoform A (SALL4, Homo sapiens, UniProt Q9UJQ4, residues 1-1053)
UniProt Q9UJQ4, sequence (whole entry, looked up): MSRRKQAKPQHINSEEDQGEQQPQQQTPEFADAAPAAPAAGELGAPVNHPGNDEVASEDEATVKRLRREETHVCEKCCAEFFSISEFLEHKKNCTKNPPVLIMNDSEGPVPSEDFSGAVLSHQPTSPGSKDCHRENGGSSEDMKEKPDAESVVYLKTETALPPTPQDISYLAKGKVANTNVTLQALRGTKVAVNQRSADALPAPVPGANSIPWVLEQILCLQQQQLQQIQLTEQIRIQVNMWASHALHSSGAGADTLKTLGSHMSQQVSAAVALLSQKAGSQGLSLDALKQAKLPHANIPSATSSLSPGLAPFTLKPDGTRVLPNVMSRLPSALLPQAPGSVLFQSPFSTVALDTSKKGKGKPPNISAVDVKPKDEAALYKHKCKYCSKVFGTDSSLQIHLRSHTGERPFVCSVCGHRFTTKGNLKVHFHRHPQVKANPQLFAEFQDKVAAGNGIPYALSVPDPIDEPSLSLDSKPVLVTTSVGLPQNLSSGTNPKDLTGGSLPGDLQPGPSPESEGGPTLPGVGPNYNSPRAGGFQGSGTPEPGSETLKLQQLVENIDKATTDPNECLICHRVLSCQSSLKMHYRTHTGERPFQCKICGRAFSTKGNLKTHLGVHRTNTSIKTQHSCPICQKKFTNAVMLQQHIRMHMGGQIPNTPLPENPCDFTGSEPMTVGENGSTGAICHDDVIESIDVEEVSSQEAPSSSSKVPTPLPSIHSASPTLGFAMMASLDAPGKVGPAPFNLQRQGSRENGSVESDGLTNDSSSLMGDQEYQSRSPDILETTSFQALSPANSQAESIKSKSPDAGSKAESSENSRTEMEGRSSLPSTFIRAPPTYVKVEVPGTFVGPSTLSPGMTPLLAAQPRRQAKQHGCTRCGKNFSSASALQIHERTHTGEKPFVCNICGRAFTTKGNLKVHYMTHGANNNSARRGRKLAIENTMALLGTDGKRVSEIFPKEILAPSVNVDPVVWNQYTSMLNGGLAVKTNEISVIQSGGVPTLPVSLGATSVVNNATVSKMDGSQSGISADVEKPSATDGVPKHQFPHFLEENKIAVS
Notes: 8-mer, flanks averaged, mean of replicates
Oligonucleotide = GCAGCGCC; result = -0.269
Oligonucleotide = ATATACGC; result = 0.168
Oligonucleotide = CAACACGA; result = -0.0339
Oligonucleotide = CATACTAC; result = 0.139
Oligonucleotide = ACCACACG; result = -0.0561
Oligonucleotide = AGCTCCTA; result = -0.133
Oligonucleotide = CGATTCAC; result = 0.0514
Oligonucleotide = CGGTCGAA; result = -0.259
Oligonucleotide = ACAATTGC; result = 0.163
Oligonucleotide = CATAAATC; result = 0.39
Oligonucleotide = CTCCTATC; result = -0.0469
Oligonucleotide = CGTTTACC; result = 0.00992
Oligonucleotide = CTACTTCC; result = -0.0595
Oligonucleotide = GTAGCCTA; result = 0.0453
Oligonucleotide = AGCCCCAC; result = -0.318
Oligonucleotide = ACTGGGAT; result = 0.0163
Oligonucleotide = AGATAATA; result = 0.341
Oligonucleotide = CCTCTAAC; result = 0.00183
Oligonucleotide = AATAACGT; result = 0.312
Oligonucleotide = GCGCGTAC; result = -0.109
Oligonucleotide = ACATCCGA; result = -0.181
Oligonucleotide = GATAGCGA; result = 0.0336
Oligonucleotide = GCACGTAA; result = 0.000475
Oligonucleotide = CACATCAC; result = 0.042
Oligonucleotide = ACTTAGAC; result = 0.132

For quick reference, copied from above (block 1):
Modification = 2'F-ANA at 3 6 7 8 9 10 12 13 15; result = 467 a.u.
Modification = 2'F-ANA at 7 8 9 12 14; result = 267 a.u.
Modification = 2'F-ANA at 1 2 3 4 6 7 8 10 11 12 13 15; result = 62.3 a.u.
Modification = 2'F-ANA at 4 5 7 9 11 14 15; result = 42.8 a.u.
Modification = 2'F-ANA at 1 3 8 9 12 13 14; result = 139 a.u.
Modification = 2'F-ANA at 1 2 3 6 8; result = 291 a.u.
Modification = 2'F-ANA at 3 4 5 6 7 8 9 10 11 12 15; result = 66.2 a.u.
